Results pooled from the literature.
Each line is one published result; not all experiments were run side by side. ± marks the error that the study gave. ≈ marks a conversion by molar mass, not a printed value.

`O=C(NCCN1C(=O)C=CC1=O)[O][Pt-2]12([O]C(=O)NCCN3C(=O)C=CC3=O)([NH2+][C@@H]3CCCC[C@H]3[NH2+]1)[O]C(=O)C(=O)[O]2`: “serum AUC ratio” about 25 fold (BALB/c mouse, serum; intravenous, equimolar single dose; reference: compound over oxaliplatin).
`Cc1[nH]nc2c1N=C(c1ccccc1Cl)c1cnc(N(CCO)CCO)cc1N2` — result for “excretion in feces”: 2.72% (human, feces; oral, 10 mg, 0 to 192 h; reference: dose).
For `CC1C(c2c(F)ccc(F)c2F)CC(N[14C](=O)c2cnc3c(c2)CC2(C3)C(=O)Nc3ncccc32)C(=O)N1CC(F)(F)F` (stereo not shown), tolerability read “not toxic” (healthy male human; 50 mg, single dose).
Under “patients with treatment-related adverse event”, `CC(C)c1cnc(-c2cc(Cl)ccc2F)cc1Nc1ccncc1C(=O)NC(CO)CO` is recorded as 0% (monotherapy, refers to: blood alkaline phosphatase increased; human patients; oral, dose not given, grade 4, phase I A).
`Cc1ccccc1/N=N/c1ccc(/N=N/c2c(O)ccc3ccccc23)c(C)c1`: “freeze-thaw stability deviation” 0.2% (rat whole blood; 16.0 µg/L, freeze-thaw cycle 2).
With `C=C(c1ccc(C(=O)O)c(F)c1)c1cc2c(cc1C)C(C)(C)C=CC2(C)C` the LDL level was 19 ± 2.6 mg/dL (Sprague-Dawley rat, male, plasma; oral, 100 mg/kg, 2 h, sesame oil vehicle).
`C#CCOc1ccc(/C=C2\SC(=O)N(CC(=O)NCc3ccccc3)C2=O)cc1` — result for “Kirkwood-Buff integral G2,3”: -367 cm³/mol (inverse Kirkwood-Buff integrals; binary solvent mixture; 298.15 K, mole fraction x1 0.75).
`NC12CNCCNCC(NCc3ccc(CNC(=O)CCCC(=O)NCc4ccc(-c5nncnn5)cc4)cc3)(CNCCNC1)CNCCNC2.[64Cu+2]`: “mean absorbed dose” 0.0325 rad/mCi (OLINDA dosimetry; thymus; 48 h pretargeting interval, added: huA33-TCO pretargeting).
`COCC1CN(C2CCN(c3cc(OC)c(Nc4ncc(Br)c(Nc5ccc6c(c5P(C)(C)=O)OCCO6)n4)cc3C)CC2)C1`: “grade ≥3 treatment-related vomiting” 3.7% (human patients; oral, dose not given).
`O=C(Nc1ccc(C(F)(F)F)cc1Cl)c1cc(Cl)ccc1O` — result for body weight: “no effect” (SCID mice CWR22Rv1 xenograft; intraperitoneal, 25 mg/kg).
Under “beta rate constant”, `N=C(N)NCCC[C@@H]1NC(=O)[C@H](Cc2c[nH]c3ccccc23)NC(=O)[C@@H](CC2CCCCC2)NC(=O)[C@@H]2CCCN2C(=O)[C@@H](NC(=O)CCc2ccccc2)CCCNC1=O` is recorded as 0.03 min⁻¹ (two-compartment model; C57BL/6J mice, plasma; intraperitoneal, 1 mg/kg).
`CCCC[C@@H]1NC(=O)[C@@H](NC(=O)[C@H](CCC(=O)O)NC(=O)CNC(=O)CN2CCN(CC(=O)O)CCN(CC(=O)O)CCN(CC(=O)O)CC2)CCCCNC(=O)C[C@@H](C(N)=O)NC(=O)[C@H](C(C)C)NC(=O)[C@@H]2CCCN2C(=O)[C@H](CCCNC(=N)N)NC(=O)CNC(=O)[C@H](Cc2c[nH]c3ccccc23)NC(=O)[C@H](CCCNC(=N)N)NC(=O)[C@@H](Cc2ccccc2)NC(=O)[C@H](Cc2c[nH]cn2)NC(=O)[C@H](CCC(=O)O)NC1=O` [gallium-67 labelled] — result for “tumour to muscle ratio”: 18.7 (C57 mice with B16/F1 melanoma; intravenous, 0.037 MBq/mouse, 0.5 h; reference: tumour over muscle).
Under “parent radioligand in plasma”, `CCc1cc(C)nc2c(CC(=O)N(CC)CC)c(-c3ccc(OCC[18F])cc3)nn12` is recorded as 64.8% (rat, plasma; 60 min).
`CCC/C(=C\C1=C(C(F)(F)F)C(=O)c2ccccc2C1=O)C(=O)N(CC)CC` gave a thermodynamic solubility of 9 µg/mL (≈ 22.9 µM) (aqueous buffer; pH 6.8).
`O=C(CCCCC[N+]#[C][99Tc-5]([C]#[N+]CCCCCC(=O)N[C@H]1C(O)O[C@H](CO)[C@@H](O)[C@@H]1O)([C]#[N+]CCCCCC(=O)N[C@H]1C(O)O[C@H](CO)[C@@H](O)[C@@H]1O)([C]#[N+]CCCCCC(=O)N[C@H]1C(O)O[C@H](CO)[C@@H](O)[C@@H]1O)([C]#[N+]CCCCCC(=O)N[C@H]1C(O)O[C@H](CO)[C@@H](O)[C@@H]1O)[C]#[N+]CCCCCC(=O)N[C@H]1C(O)O[C@H](CO)[C@@H](O)[C@@H]1O)N[C@H]1C(O)O[C@H](CO)[C@@H](O)[C@@H]1O` (stereo partly shown) gave a blood uptake of 13 ± 0.88 %ID/g (healthy CD-1 mouse, blood; 2 min).
With `CC[C@H](C)[C@H](NC(=O)[C@H](CC(C)C)NC(=O)[C@H](Cc1c[nH]c2ccccc12)NC(=O)[C@H](C)NC(=O)[C@@H](NC(=O)[C@H](Cc1ccccc1)NC(=O)[C@H](CC(=O)O)NC(=O)[C@H](CCCNC(=N)N)NC(=O)[C@H](C)NC(=O)[C@H](C)NC(=O)[C@H](CC(C)C)NC(=O)[C@H](C)NC(=O)[C@H](CC(=O)O)NC(=O)[C@H](CC(C)C)NC(=O)[C@@H](NC(=O)[C@@H](NC(=O)[C@H](C)NC(=O)[C@H](CC(C)C)NC(=O)[C@H](CCC(=O)O)NC(=O)[C@H](CO)NC(=O)[C@H](CO)NC(=O)[C@H](Cc1ccccc1)NC(=O)[C@@H](NC(=O)CNC(=O)[C@H](CCC(=O)O)NC(=O)CNC(=O)[C@@H](N)Cc1c[nH]cn1)[C@@H](C)O)[C@@H](C)O)[C@@H](C)CC)[C@@H](C)CC)C(=O)N[C@@H](C)C(=O)N[C@H](C(=O)N[C@@H](CCCCN)C(=O)N[C@H](C(=O)N[C@H](C(=O)N[C@@H](CC(=O)O)C(=O)N[C@@H](CCCCN)C(=O)N[C@@H](CCCCN)C(=O)O)[C@@H](C)O)[C@@H](C)CC)[C@@H](C)O` the AUCinf was 1.01 nM·h (immunoaffinity LC-MS/MS; healthy human subjects, plasma; intravenous infusion, 1 mg single dose, infused over 15 min).
With `C[C@H](NC(=O)COC(=O)[C@H](C)NC(=O)CO)C(=O)O` the depolymerization half-life was 27.9 h (water; pH 3, 65 °C).
With `CC[C@H](C)[C@H](NC(=O)[C@H](N)Cc1ccc(O)cc1)C(=O)N[C@H]1CSSC[C@@H](C(=O)N(C)[C@H](C(N)=O)[C@@H](C)CC)NC(=O)[C@H](CCCNC(=N)N)NC(=O)[C@H](Cc2c[nH]cn2)NC(=O)[C@H](C)NC(=O)CN(C)C(=O)[C@H](Cc2c[nH]c3ccccc23)NC(=O)[C@H](CC(=O)O)NC(=O)[C@H](CCC(N)=O)NC(=O)[C@H](Cc2cn(C)c3ccccc23)NC(=O)[C@H](C(C)C)NC1=O` the recovery was 97.5 ± 5.1% (UPLC-ESI-MS; human plasma; 0.36 µg/mL, 24 h, 4 °C, autosampler after SPE).
`Cc1cccc(CSc2nc(N)c(C#N)c(-c3cccc(O[11CH3])c3)c2C#N)n1` — result for “parent compound fraction”: over 99% (radio-HPLC; rat, brain homogenate; 15 min).
`COC(=O)C(c1ccccc1Cl)N1CCC(SCC(=O)c2cccc(OC)c2)C(=CC(=O)O)C1` (mixture of isomers) — result for “deviation from nominal concentration”: -13% (feline EDTA plasma; 100 ng/mL, 1 weeks, room temperature).
The AUC(0-last) ratio of `CCCC(CCC(=O)O)NC(=O)c1ccc2c(c1)OCO2` (stereo not shown) is reported as 11.8 (female Sprague-Dawley rats, plasma; oral, 200 mg/kg of parent drug; reference: 200 over 20 mg/kg dose).
`CC[C@H](C)[C@H](NC(=O)[C@H](CCCNC(=N)N)NC(=O)[C@@H](NC(=O)[C@H](CO)NC(=O)[C@@H](NC(=O)[C@@H](NC(=O)[C@H](CS)NC(=O)[C@H](CCCCN)NC(=O)[C@@H](N)CCCNC(=N)N)C(C)C)[C@@H](C)CC)C(C)C)C(=O)N[C@@H](CCCNC(=N)N)C(=O)N[C@@H](CC(N)=O)C(=O)N[C@@H](CCCNC(=N)N)C(=O)N[C@@H](CCCNC(=N)N)C(=O)N[C@@H](C)C(=O)N[C@@H](CC(N)=O)C(=O)N[C@H](C(=O)N[C@@H](CCCCN)C(=O)N[C@H](C(=O)N[C@@H](CC(C)C)C(=O)N[C@@H](CS)C(=O)N[C@@H](CC(N)=O)C(=O)O)[C@@H](C)CC)[C@@H](C)CC` — result for “single disulfide form”: 39% (LC-MS; PBS; 0.1 mg/mL).
`C[Si]1(C[C@H](CN)CC(=O)O)CCCC1` gave a performance time of 180 s (neuromuscular coordination; Wistar rat male; oral, 100 mg/kg, 3 h).
`CC(C)[C@H](NC(=O)CNC(=O)[C@H](CCC(N)=O)NC(=O)[C@H](C)N)C(=O)O` has a clearance of 983 mL/min/kg (human, both sexes, plasma; intravenous infusion, 45 mg/kg/h, 2 h infusion, geometric mean).
Under “radiative decay rate constant”, `COc1ccc2cc(-c3ccc(-c4ccc(C)cn4)nc3)oc2c1` is recorded as 0.06 ns⁻¹ (TCSPC; water, HEPES 100 mM; pH 7.4, zinc complex).
For `Nc1nc2c(ncn2CC(=O)N[C@@H](Cc2ccccc2)C(=O)N[C@@H](Cc2ccccc2)C(=O)N[C@@H](Cc2ccc(O)cc2)C(=O)O)c(=O)[nH]1`, the nanofiber width was 14 nm (TEM; hydrogel in water; 2.0 wt%, pH 5.0 or 7.4, added: alkaline phosphatase at pH 7.4).
`C[C@H](NC(=O)[C@H](CCCNC(=N)N)N(C)C(=O)[C@@H]1CCCN1C(=O)[C@H](CCCNC(=N)N)NC(=O)CNC(=O)c1ccc2c(c1)C1(OC2=O)c2ccc(O)cc2Oc2cc(O)ccc21)C(=O)N[C@@H](Cc1ccccc1)C(=O)N[C@H](C(=O)N[C@@H](Cc1ccccc1)C(=O)N(C)[C@@H](C)C(N)=O)[C@@H](C)O`: “breakdown rate ratio” over 5 (cytosolic lysate; reference: LNCaP over HeLa lysate).
The free Cmax of `Cc1cc(NC(=O)[C@H](O)c2cc(F)cc(F)c2)ccc1-c1cnc(N)c(C(=O)NC(C)C)c1` is reported as 839 nM (mouse, athymic nude Foxn1nu, female, plasma; oral, 100 mg/kg).
`Cn1c(=O)oc2ccc(-c3ccc(CC(C#N)NC(=O)C4CNCCCO4)c(F)c3)cc21` (stereo not shown): “subjects with TEAE” 0% (refers to: alanine aminotransferase increased; human; 80 mg single dose, fasted).
`CC(C)C[C@@H](NC(=O)[C@H](NC(=O)[C@H]1CCCN1)[C@H](C)O)C(=O)N[C@H](Cc1c[nH]cn1)C(=O)N[C@@H](C(=O)N[C@H](Cc1c[nH]cn1)C(=O)N[C@H](CC(N)=O)C(=O)N[C@H](CCCNC(=N)N)C(=O)N[C@H](CCCNC(=N)N)C(=O)N[C@H](CCCNC(=N)N)C(=O)N[C@H](CCCNC(=N)N)C(=O)N[C@H](CCCNC(=N)N)C(N)=O)[C@H](C)O` gave an AUC(0-inf) of 990 ± 383 ng·h/mL (Beagle dog, CSF; intravenous, 3 mg/kg, single dose).
With `NS(=O)(=O)c1ccc(N2N=C(C(F)(F)F)CC2c2ccc(F)cc2F)cc1` (stereo not shown) the Cmax was 384 ng/mL (beagle dog, plasma; oral, 1 mg/kg, single dose).
For `CNC(=O)N[C@]1(C)CCC[C@@]2(C)C3CC[C@@]4(C)C[C@]3(CCC21)CC4=O` (single isomer, unassigned), the CL/F was 0.697 L/min (rat, plasma; oral, 2 mg/kg).
`C[C@@H](O)[C@H](NC(=O)[C@@H](NC(=O)[C@@H](N)CCCCN)[C@@H](C)O)C(=O)N[C@@H](CCCCN)C(=O)N[C@@H](CO)C(=O)O` — result for chemical stability: “stable” (10 mM HEPES buffer; pH 7.4).
For `CC[C@@H](C)N([11CH3])C(=O)c1nc(-c2ccccc2Cl)c2ccccc2n1`, “total volume of distribution” read 11.3 mL/cm³ (PET Logan analysis; male rhesus monkey, cerebellum; intravenous, dose not given, baseline).
`COc1ccc(/C=C/c2ccc(-c3ccc(C)cn3)nc2)cc1` gave a fluorescence lifetime of 0.84 ns (TCSPC; dioxane).
With `C=C(c1ncc(C(=O)O)cn1)c1cc2c(cc1C)C(C)(C)CCC2(C)C` the LDL level was 11 ± 7 mg/dL (Sprague-Dawley rat, male, plasma; oral, 100 mg/kg, 9 h, sesame oil vehicle).
Under “aggregation onset time”, `O=C1c2ccc3c4ccc5c6c(ccc(c7ccc(c2c37)C(=O)N1CCN1CCCCC1)c64)C(=O)N(CCN1CCCCC1)C5=O` is recorded as over 12 h (buffer 10 mM; 40 µM, pH 7).

Some of these lines once more:
Under “beta rate constant”, `N=C(N)NCCC[C@@H]1NC(=O)[C@H](Cc2c[nH]c3ccccc23)NC(=O)[C@@H](CC2CCCCC2)NC(=O)[C@@H]2CCCN2C(=O)[C@@H](NC(=O)CCc2ccccc2)CCCNC1=O` is recorded as 0.03 min⁻¹ (two-compartment model; C57BL/6J mice, plasma; intraperitoneal, 1 mg/kg).
`CCCC[C@@H]1NC(=O)[C@@H](NC(=O)[C@H](CCC(=O)O)NC(=O)CNC(=O)CN2CCN(CC(=O)O)CCN(CC(=O)O)CCN(CC(=O)O)CC2)CCCCNC(=O)C[C@@H](C(N)=O)NC(=O)[C@H](C(C)C)NC(=O)[C@@H]2CCCN2C(=O)[C@H](CCCNC(=N)N)NC(=O)CNC(=O)[C@H](Cc2c[nH]c3ccccc23)NC(=O)[C@H](CCCNC(=N)N)NC(=O)[C@@H](Cc2ccccc2)NC(=O)[C@H](Cc2c[nH]cn2)NC(=O)[C@H](CCC(=O)O)NC1=O` [gallium-67 labelled] — result for “tumour to muscle ratio”: 18.7 (C57 mice with B16/F1 melanoma; intravenous, 0.037 MBq/mouse, 0.5 h; reference: tumour over muscle).
Under “parent radioligand in plasma”, `CCc1cc(C)nc2c(CC(=O)N(CC)CC)c(-c3ccc(OCC[18F])cc3)nn12` is recorded as 64.8% (rat, plasma; 60 min).
`CCC/C(=C\C1=C(C(F)(F)F)C(=O)c2ccccc2C1=O)C(=O)N(CC)CC` gave a thermodynamic solubility of 9 µg/mL (≈ 22.9 µM) (aqueous buffer; pH 6.8).
